Results gathered from unrelated publications.
A part holds a random share of what one study measured.

Block 1 — technique: competition protein-binding microarray; form: double-stranded DNA, one strand shown; matrix: in vitro; tested at: 2 µM; added: Pho4 competitor, 0.05 µM; reading: higher = stronger binding; shared flanks, not repeated: … GTCTTGATTCGCTTGACGCTGCTG
Target: Centromere-binding protein 1, full length, His-tagged (CBF1, Saccharomyces cerevisiae, UniProt P17106, residues 1-351)
Sequence of UniProt P17106 (whole entry, looked up): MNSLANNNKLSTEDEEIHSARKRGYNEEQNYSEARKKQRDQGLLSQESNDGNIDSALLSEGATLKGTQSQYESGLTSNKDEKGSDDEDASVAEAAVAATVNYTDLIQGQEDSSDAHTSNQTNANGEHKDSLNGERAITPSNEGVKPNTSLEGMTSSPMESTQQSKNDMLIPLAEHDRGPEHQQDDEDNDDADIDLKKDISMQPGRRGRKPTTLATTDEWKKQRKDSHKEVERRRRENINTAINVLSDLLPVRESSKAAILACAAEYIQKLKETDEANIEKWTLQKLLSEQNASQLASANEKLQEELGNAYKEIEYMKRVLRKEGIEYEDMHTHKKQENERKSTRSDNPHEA
Setting: whole 60-bp probe, lowest competitor level
Sequence	fluorescence intensity [a.u.]
AGGGTGGTATGGATACACGGGAAGCTTGGGTGCTGC	68.2
CTTTGAGCACCACTCCACGTGGGCGCAGGCGCAGCG	397
CCGGCCATTGCTTACCGCGTGCAAAATCCGTAACAT	90.1
AAATTACTAAGTTGTCACGCAACTTACCCCGTATGA	130
CCGGGAGTTTTTCCGCACGCTAAAATCAAGACTCAA	72.9
TCTAAATTGGAGCACAGCATGACAGTTGCCACCTCT	65.8
ACTGGTAAGCACCGTCACGCTAAAGTCCATTTGGTT	78.8
CTAACGAAGGTTTGTCACTGAACTTACAAGCCAAGT	66.5
CGAATGGAGAGCGGCCACGTTGTTAGGGGAGTAACA	82.9
GGTACAGCCGTCTACAACGTGTGTTAATTTGCTAAC	99.1
CATACCCAACCTTGTATTGTGGGTGAAGATATTTGT	81.5
GGAGATGCCAGAAAAAGCGTGGGTACTGGTCTGGTT	59.9
CCACTAATTAGCTGTCATGTGCCTGCGAACGCCCAA	839
AAAGCGGTAATTTGTCACCTCACTTCACATATCTAT	78.5
ATACTATCATTAACTTCCGTGACTCGATTGGTTTGC	113
CGGGGTTAAGTTTGTCACAATACTTGCTTGCAGCAG	81
AAATTACTAAGTTTTCACGTGTGCTACCCCGTATGA	802
GAATTTTGCAAATCCAACGTGGCCGGTTGACCAGTA	67.2
CTAACGAAGGTTTTTCACGTGTGTTACAAGCCAAGT	582
CCTCGGCTGTTCAGCAACGTGAGATGGTTGTTGTTA	98.4
GGTCTAAACCCATCTCACGTTCCCTATTAGTGGGTG	105
CTGACGGTAGCGCTCCAGGTGATGCTGGTGTTTCAT	61.7
CATACCCAACCTTGTCGTGTGGGTGAAGATATTTGT	81.1

Block 2 — technique: protein-binding microarray; form: double-stranded DNA, one strand shown; matrix: in vitro; tested at: 2540 nM top; setting: 60-bp whole probe; added: salmon DNA 0.4 mg/ml; relative to: random background probes; reading: higher = stronger binding; shared flanks, not repeated: GCCTAGCAC … GTCTTGATTCGCTTGACGCTGCTG
Target: Interferon regulatory factor 3, full length, phosphomimetic (IRF3, Homo sapiens, UniProt Q14653, residues 1-427, S386D/S396D/S398D/S402D/T404D/S405D)
Construct (chain): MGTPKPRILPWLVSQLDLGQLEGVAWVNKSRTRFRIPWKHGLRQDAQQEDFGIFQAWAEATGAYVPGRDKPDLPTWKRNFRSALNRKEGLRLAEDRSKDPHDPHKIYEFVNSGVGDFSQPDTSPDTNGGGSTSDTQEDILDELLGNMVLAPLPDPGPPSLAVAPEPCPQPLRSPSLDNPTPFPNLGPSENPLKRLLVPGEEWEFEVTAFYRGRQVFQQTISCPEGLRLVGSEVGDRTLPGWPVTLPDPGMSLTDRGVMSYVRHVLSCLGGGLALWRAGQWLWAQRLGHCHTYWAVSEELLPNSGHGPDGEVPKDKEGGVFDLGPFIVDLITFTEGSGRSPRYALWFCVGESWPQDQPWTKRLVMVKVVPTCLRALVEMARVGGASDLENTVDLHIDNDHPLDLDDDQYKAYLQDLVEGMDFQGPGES
Sequence	fitted relative affinity [z-score]
CTGACATGTAAATGTGACATGTGCTAG	0.149
TTAGGACTGAGTATCGGTTAGTGCTAG	0.821
TATAGCTGATACATATAGCCGTGCTAG	0.07
TTAGGACTGTTACTGCTTTAGTGCTAG	-0.427
TCATTTCTCAGTTTATTACTGTGCTAG	2.62
TTAGATTTCAGACTCGATTAGTGCTAG	1.57
TACGATTTCAGTTTCGAGACGTGCTAG	4.31
GACGGTTTCCTTTCCCTGATGTGCTAG	9.75
GTCGATTTCGGGACTGGAGACGTGCTA	2.97
TACGGTATCGACACTGGGGACGTGCTA	0.464
TTAGGACTAGGGTATCGGTTAGTGCTA	0.136
TTAGGTGTCCTACTGCTTTAGTGCTAG	1.07
GACTTTTTACCTGTGGTGTAGTGCTAG	0.86
GACGATATCGGGACTGGAAACGTGCTA	0.326
GACGGTTTCGACAATGGGGACGTGCTA	2.69
TACGATCTCAGACTGGAGACGTGCTAG	0.306
TCATGTGTATATATAATACTGTGCTAG	0.0696
GACGGACTGCTTTTCCTGTCGTGCTAG	0.507
TCAGTTTCCAAATTGTCACTGTGCTAG	8.9
TCAAATTCCTGAAATCTCACTGTGCTA	-0.00842
TTAAGACTGGGTATCGGTTAGTGCTAG	0.568
TCATTTTTCTGATTGAAACTGTGCTAG	2.16
TTAGAACTGGGCTATCGATTAGTGCTA	-0.745
GACGGACTGGGGACTGGGCACGTGCTA	-1.09
GACGGTATCCTTTTCCTGAGGTGCTAG	7.34

Block 3 — technique: RNA Bind-n-Seq; form: RNA; matrix: in vitro; tested at: 365 nM; relative to: no-protein control; reading: higher = stronger binding
Target: RNA binding protein fox-1 homolog 2, RRM domain, GST-SBP tag (RBFOX2, Homo sapiens, UniProt O43251-10, residues 100-194)
Setting: natural RNA segment, single round, ends assumed
Shared flanks, not repeated: GGGAGUUCUACAGUCCGACGAUC … UGGAAUUCUCGGGUGCCAA
Residues (chain): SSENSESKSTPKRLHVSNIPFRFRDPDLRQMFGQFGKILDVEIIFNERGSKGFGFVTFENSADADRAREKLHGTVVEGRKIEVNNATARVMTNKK
Sequence	RBNS enrichment (R)
UUUUAGGUCUGCUGAAGUCUGGUGUUCUUUGCUCCUUCUGCAAUCUUGAAAUUGGGGUUUGCUUUAGAGCACAAACAUAAGUCUGUGUUAGGUGGACUUAAAUCCCAACA	0.31
UAUAGACAGAAAUAAUAAGCCACCCUGGGUGUAAACUUGAUUUUCUUUAUUGAGAUGUAUCAUGUAUUGAAUGAGUGAACCAGAAAAUUAGAAGAUGGUCAAAAAAAGUC	3.04
UUACAAAUUAGGAAAGCAACCUUUCAGUUUAUAUAUAUAUUUUUUUUCCUUUUUGAUACCUCAGUGCUGCAAGUAUCAUCAGAGAGGCUAUGGAAGAGUUUUGUGUUUUG	1.28
GGAGACGAGGGCUGGCCAAGAACCUCCUAGAGGCUGUCCCUGGACCUGGAGCUGCAGGCAUCAGAGAACCAGCCCUGCUCACGCCAUGCCCGCCCCCGCCUUCCCUCUUC	0.407
ACAGUUGGACGUGGUGUUAGUUUUAGACAAACGGGUUUCAUUAUUAUUCCUCUUUGCCUUCUCAAUGUUAAUUUAUUGCAUGGUUUACUCCUUUUCUUUACAGCCGAAAU	1.61
CUUGAAAUUUAUUGGUUUUGUUGUAAUUUUAUACAGAUUAUAUGAGGGAUAAGAUACUCAUCAAAUUGCAAAUUCUUUUUUUUACAGAAGUGUGGGUAACAGUCACAGCA	0.825
UUUGUUUGUCACCUCUAUUUAGUUGUUACCUGUUUCUCUCUUCUUUCACCCCUUGUCCUUUUCCACCCUUUUAAGAGUUACGCUAGCAGAUCUUACUCCACGUAUACUUU	0.767
AAAAAAAAAAAACAACUGGAAAUGGAUGUCUUCACAUUAGGGGUGGAGUAUUAACAACCAGAAAGAAAGUUUGGAUAUUACCUUUUAACUACUAGUUAACAUCAUGCUUG	0.551
UUUCAAUAACAAAAUAUCGUAAGUAGAAUGCUUUUGUGCCUUUGGAUACAAGAUUAAUCUUUAGAAAUUUUGAAUUUUCUACUUGAGAUAUAAAAAUUCAGUAAAAUGUA	0.843
UUUUAUAUCUACAUAUUUGCGGUUAGAAUCCCAUGGAUGUUUCUUCUUUGACUAUAACAAAAUCUGGGGAGGACAAAGGUGAUUUUCCUGUGUCCACAUCUAACAAAGUC	0.481
CUUGACAUUGGUCUGUUUUGCUGUGAAUAUUGGAAAUGCUUAGGAUCUUCAGACCCAAUAGCUCUAAUUUUAACAUUUCUACCCAAUAAGAGGCUCUGUUUUCCACUGAA	0.261
UUUGUAUUUUUAGUAGAGAAGGGAUUUCACCAUGUUGGCCGGGCUGGUCUCAAACUCCUAAGGUCAUCCACCUGCCUCGGCCUCCCAGAGUGCUGAGAUUACAGGCGUGA	0.567

Block 4 — technique: RNA Bind-n-Seq; form: RNA; matrix: in vitro; tested at: 1 µM; setting: whole 134-nt RNA, ends assumed; added: 150 mM KCl; relative to: input library; reading: higher = stronger binding
Target: Ras GTPase-activating protein-binding protein 1, C-terminal RGG region (G3BP1, Homo sapiens, UniProt Q13283)
Sequence of UniProt Q13283 (whole entry, looked up): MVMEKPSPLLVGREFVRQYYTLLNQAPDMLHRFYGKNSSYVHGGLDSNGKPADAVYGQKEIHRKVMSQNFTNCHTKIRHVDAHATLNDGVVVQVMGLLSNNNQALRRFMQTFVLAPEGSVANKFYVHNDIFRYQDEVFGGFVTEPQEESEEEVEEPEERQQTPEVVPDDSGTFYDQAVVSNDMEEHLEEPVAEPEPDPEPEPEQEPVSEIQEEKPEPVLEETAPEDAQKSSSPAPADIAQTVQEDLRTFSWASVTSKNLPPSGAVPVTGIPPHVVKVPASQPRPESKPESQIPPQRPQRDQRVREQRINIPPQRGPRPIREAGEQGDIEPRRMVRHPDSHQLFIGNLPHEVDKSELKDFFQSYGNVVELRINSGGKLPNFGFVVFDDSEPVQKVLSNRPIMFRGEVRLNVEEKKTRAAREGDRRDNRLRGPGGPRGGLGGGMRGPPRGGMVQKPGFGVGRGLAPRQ
Shared flanks, not repeated: GGGAGUUCUACAGUCCGACGAUC … UGGAAUUCUCGGGUGUCAAGG
Sequence	log2 enrichment
CCUGUGCUACACAUCGUAUGUACCGAAUCGGUUUUUUUGGGUUUUUUUGGGGUUUUUUUGGAAAGUAUUAUGUUACGCCGUUCGGAUCUG	-1.47
CUCAAGUCCUGUGCUACACAUCGUAUGUACCGAAUCGGAAAGGUUUUUGGUGGAAAGUAUUAUGUUACGCCGUUCGGAUCUGCACUUCCA	-1.07
CCUCAAGUCCUGUGCUACACAUCGUAUGUACCGAAUCGGUUGGUUGGUUGGGAAAGUAUUAUGUUACGCCGUUCGGAUCUGCACUUCCAG	-0.579
GCCUGGCGCUGGCCAACAAUAGCACCCUCACCAUUGGCACCAUCGAUGAGAUCCAGAAGCUGCACAUUCGCACAGUUCCCCUCUAUGAGU	1.49
CUGUGCUACACAUCGUAUGUACCGAAUCGGGGUUUGGGGAAAAAAAGGGGUUUUUUUGGGGAAAGUAUUAUGUUACGCCGUUCGGAUCUG	0.649
AGUCCUGUGCUACACAUCGUAUGUACCGAAUCGGGGAAAGGGGUUUUUGGGGUGGGGAAAGUAUUAUGUUACGCCGUUCGGAUCUGCACU	1.9
GUCCUGUGCUACACAUCGUAUGUACCGAAUCGGCCCCCCGGCCCCCCGGGCCCCCCGGAAAGUAUUAUGUUACGCCGUUCGGAUCUGCAC	-0.739
CCUGUGCUACACAUCGUAUGUACCGAAUCGGGGCCCCCCCGGCCCCCCCGGCCCCCCCGGGAAAGUAUUAUGUUACGCCGUUCGGAUCUG	-1.49
ACCAUGCAGGUGGGCAUCUUUAGGAAGUGGGGCAAGGGGGGGAUAGGGAGGGGGGUAACACUUUGGGAACAGGUGGUCCCAGGUCGUUUC	-0.92
UCCUGUGCUACACAUCGUAUGUACCGAAUCGGGGCCCCCCGGCCCCCCGGGCCCCCCGGGAAAGUAUUAUGUUACGCCGUUCGGAUCUGC	-0.597
UGGGAGGUGGAUUUUGUUUAUUUUUUUAGCUCAUUUCCAGGGGUGGGAAUUUUUUUUUAAUAUGUGUCAUGAAUAAAGUUGUGUUUGAAA	3.66
CUCAAGUCCUGUGCUACACAUCGUAUGUACCGAAUCGGCCGGCCGGGCCGGGGAAAGUAUUAUGUUACGCCGUUCGGAUCUGCACUUCCA	-1.25
GUCCUGUGCUACACAUCGUAUGUACCGAAUCGGGAAAAAGGGAAAAAGGGGAAAAAGGAAAGUAUUAUGUUACGCCGUUCGGAUCUGCAC	-1.12
AAGUCCUGUGCUACACAUCGUAUGUACCGAAUCGGGUUUGGGUUUGGGAAAAAGGGAAAGUAUUAUGUUACGCCGUUCGGAUCUGCACUU	1.3

Repeated from above (block 2):
Sequence	fitted relative affinity [z-score]
TTAGGACTGAGTATCGGTTAGTGCTAG	0.821
TATAGCTGATACATATAGCCGTGCTAG	0.07
TTAGGACTGTTACTGCTTTAGTGCTAG	-0.427
TCATTTCTCAGTTTATTACTGTGCTAG	2.62
TTAGATTTCAGACTCGATTAGTGCTAG	1.57
TACGATTTCAGTTTCGAGACGTGCTAG	4.31
GACGGTTTCCTTTCCCTGATGTGCTAG	9.75
GTCGATTTCGGGACTGGAGACGTGCTA	2.97
TACGGTATCGACACTGGGGACGTGCTA	0.464
TTAGGACTAGGGTATCGGTTAGTGCTA	0.136
TTAGGTGTCCTACTGCTTTAGTGCTAG	1.07
GACTTTTTACCTGTGGTGTAGTGCTAG	0.86
